# Published values collected from several papers.
# Lines come from different studies, so protocols differ.
# Target: Beta-2 adrenergic receptor (ADRB2, Homo sapiens, UniProt P07550)
# Chain of UniProt P07550 (whole entry, looked up): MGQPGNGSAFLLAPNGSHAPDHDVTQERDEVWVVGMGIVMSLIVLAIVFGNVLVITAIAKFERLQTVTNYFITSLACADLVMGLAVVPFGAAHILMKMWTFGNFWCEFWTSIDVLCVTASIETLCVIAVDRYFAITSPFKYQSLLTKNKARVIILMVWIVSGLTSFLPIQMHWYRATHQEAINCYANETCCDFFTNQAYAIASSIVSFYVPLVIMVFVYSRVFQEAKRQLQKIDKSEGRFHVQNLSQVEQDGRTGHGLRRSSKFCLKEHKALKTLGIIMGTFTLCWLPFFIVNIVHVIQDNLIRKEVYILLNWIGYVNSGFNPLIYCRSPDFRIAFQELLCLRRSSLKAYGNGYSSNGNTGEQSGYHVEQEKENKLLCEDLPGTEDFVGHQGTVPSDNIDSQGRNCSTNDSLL
SMILES,test,system,setting,how to read,quantity,value
Clc1cccc(Nc2nc(NC3CCCCC3)c3ccccc3n2)c1,"β-arrestin2 recruitment, PathHunter and GloSensor",,,baseline: GloSensor IC50 over PathHunter IC50,bias factor,> 8 fold
O=C1c2sc(-c3ccc(N4CCC(F)C4)nc3F)nc2CCN1c1cccnc1 (stereo not shown),"ligand displacement, radioligand",,1 µM,,inhibition,-5%
Cc1[nH]nc2c1N=C(c1ccccc1Cl)c1cnc(N3CCOCC3)cc1N2,cell-free assay,,10 µM,,inhibition,-3%
COCC(=O)N1CCc2cc(-c3csc(NC(=O)c4cc(OC)cc(OC)c4)n3)ccc21,cell-free assay,,10 µM,,inhibition,4%
COc1ccc(C#CC2=C[C@H]3C[C@@]4(OC(=O)C=C24)[C@H]2CC[C@H](C(OC)OC)N32)cc1,"ligand displacement, radioligand",,10 µM,,inhibition,-6%
Brc1ccccc1-c1nnc(CSc2nnnn2-c2ccccc2)o1,"ligand displacement, radioligand",,10 µM,,inhibition,1%
COc1ccc(C(=O)Nc2c(-c3cccs3)nc3ccccn23)cc1,"ligand displacement, radioligand",,10 µM,,inhibition,< 50%
Cc1ccc2nc(Nc3ccc(F)c(F)c3)nc(NC3CCCCC3)c2c1,"β-arrestin2 recruitment, PathHunter and GloSensor",,,baseline: GloSensor IC50 over PathHunter IC50,bias factor,47 fold
CNC(=O)C[C@H](Cc1ccc(C#N)cc1)NC(=O)c1cc(-c2ccc(CN[C@H](C)c3ccc(C)cc3)o2)ccc1Cl,"agonist response, antagonist",2,10 µM,,inhibition,-27%
c1ccc2c(NC3CCCCC3)nc(NC3CCCCC3)nc2c1,"β-arrestin2 recruitment, PathHunter and GloSensor",,,baseline: GloSensor IC50 over PathHunter IC50,bias factor,> 12 fold
CO[C@@H](C)c1c(NC(=O)Nc2cnc(-n3nccn3)c(C(F)(F)F)c2)cnc2sc(C)nc12,"ligand displacement, radioligand",,10 µM,,inhibition,17.3%
COc1ccc(Nc2nc(NC3CCCCC3)c3ccccc3n2)cc1OC,"β-arrestin2 recruitment, PathHunter and GloSensor",,,baseline: GloSensor IC50 over PathHunter IC50,bias factor,> 4 fold
Cn1ccc2cc(-n3c(=O)[nH]c4sc5c(c4c3=O)CCCC5)ccc21,"cell-free assay, radioligand",,10 µM,,inhibition,-1%

# Some of these lines once more:
SMILES,test,system,setting,how to read,quantity,value
Brc1ccccc1-c1nnc(CSc2nnnn2-c2ccccc2)o1,"ligand displacement, radioligand",,10 µM,,inhibition,1%
